{"data": "Assay results collected from several papers", "note": "Protocols differ between the studies behind these lines."}
{"Structure (SMILES)": "NCCNC(=O)[C@H](Cc1ccccc1)NC(=O)[C@H](Cc1ccccc1)NC(=O)CNC(=O)c1cc(C(=O)NCC(=O)N[C@@H](Cc2ccccc2)C(=O)N[C@@H](Cc2ccccc2)C(=O)NCCN)cc(C(=O)NCC(=O)N[C@@H](Cc2ccccc2)C(=O)N[C@@H](Cc2ccccc2)C(=O)NCCN)c1", "assay": "Nile Red fluorescence", "test system": "water", "conditions": "pH 4.0, room temperature", "measurement": "critical aggregation concentration", "value": "835 µM"}
{"Structure (SMILES)": "O=C(Cc1ccc2ccccc2c1)N[C@H](Cc1ccccc1)C(=O)N[C@H](Cc1ccc(OP(=O)(O)O)cc1)C(=O)N[C@H](Cc1ccccc1)C(=O)N[C@H](Cc1ccc(OP(=O)(O)O)cc1)C(=O)O", "assay": "substrate, rheology", "test system": "hydrogel", "conditions": "0.5 wt%, with: alkaline phosphatase 1 U/mL", "measurement": "critical strain", "value": "1.8%"}
{"Structure (SMILES)": "CCC(c1nnnn1Cc1cccs1)N1CCN(c2nc3cc(N)cc(F)c3s2)CC1 (stereo not drawn)", "assay": "light scattering", "test system": "DNase I reaction buffer", "measurement": "critical aggregation concentration", "value": "> 23 µM"}
{"Structure (SMILES)": "O=C(Cc1ccc2ccccc2c1)N[C@H](Cc1ccc(OP(=O)(O)O)cc1)C(=O)N[C@H](Cc1ccccc1)C(=O)N[C@H](Cc1ccccc1)C(=O)N[C@H](Cc1ccc(OP(=O)(O)O)cc1)C(=O)O", "assay": "substrate, rheology", "test system": "hydrogel", "conditions": "0.5 wt%, with: alkaline phosphatase 1 U/mL", "measurement": "critical strain", "value": "1%"}
{"Structure (SMILES)": "COC(=O)[C@H](CSSC[C@H](NC(=O)[C@H](Cc1ccccc1)NC(=O)[C@H](Cc1ccccc1)NC(=O)OC(C)(C)C)C(=O)OC)NC(=O)[C@H](Cc1ccccc1)NC(=O)[C@H](Cc1ccccc1)NC(=O)OC(C)(C)C", "assay": "surface tension", "measurement": "critical aggregation concentration", "value": "1.07 mg/mL"}
{"Structure (SMILES)": "Cc1cn(CC(=O)N[C@@H](Cc2ccccc2)C(=O)N[C@@H](Cc2ccccc2)C(=O)O)c(=O)[nH]c1=O", "assay": "oscillatory rheology", "test system": "hydrogel in water", "conditions": "2.0 wt%, pH 5.0 or 7.4, with: alkaline phosphatase at pH 7.4", "measurement": "critical strain", "value": "1.2%"}
{"Structure (SMILES)": "CCCCCCCCCCCC(=O)N[C@@H](CC(C)C)C(=O)N[C@@H](CCCNC(=N)N)C(=O)N[C@@H](CCC(=O)O)C(=O)N[C@@H](CC(C)C)C(=O)N[C@@H](Cc1c[nH]cn1)C(=O)N[C@@H](CC(C)C)C(=O)N[C@@H](CC(N)=O)C(=O)N[C@@H](CC(N)=O)C(=O)N[C@@H](CC(N)=O)C(N)=O", "test system": "PBS", "conditions": "after jet nebulization", "measurement": "critical gelation concentration", "value": "1 mM"}
{"Structure (SMILES)": "CCC(c1nnnn1Cc1cccs1)N1CCC(c2nc3cc(N)ccc3s2)CC1 (stereo not drawn)", "assay": "light scattering", "test system": "DNase I buffer", "conditions": "5% DMSO", "measurement": "critical aggregation concentration", "value": "177 µM"}
{"Structure (SMILES)": "CCCCCCCCCCCC(=O)NCCCC[C@H](NC(=O)[C@H](C)NC(=O)[C@H](C)NC(=O)[C@H](C)NC(=O)[C@H](C)NC(=O)[C@H](C)NC(=O)[C@H](C)NC(=O)[C@H](CCCCN)NC(=O)[C@H](CCCCN)NC(=O)[C@H](CCCCNC(=O)CC[C@H](NC(=O)[C@@H](NC(=O)[C@@H]1CSSC[C@H](NC(=O)[C@H](CC(=O)O)NC(=O)[C@@H](N)Cc2c[nH]c3ccccc23)C(=O)N[C@@H](CC(C)C)C(=O)N[C@@H](CC(=O)O)C(=O)N[C@@H](CC(N)=O)C(=O)N[C@@H](CCCNC(=N)N)C(=O)N[C@@H]([C@@H](C)CC)C(=O)NCC(=O)N[C@@H](CCCNC(=N)N)C(=O)N[C@@H](CCCNC(=N)N)C(=O)N[C@@H](CCC(N)=O)C(=O)N1)C(C)C)C(=O)N[C@@H](CC(C)C)C(N)=O)NC(=O)CC[C@H](NC(=O)[C@@H](NC(=O)[C@@H]1CSSC[C@H](NC(=O)[C@H](CC(=O)O)NC(=O)[C@@H](N)Cc2c[nH]c3ccccc23)C(=O)N[C@@H](CC(C)C)C(=O)N[C@@H](CC(=O)O)C(=O)N[C@@H](CC(N)=O)C(=O)N[C@@H](CCCNC(=N)N)C(=O)N[C@@H]([C@@H](C)CC)C(=O)NCC(=O)N[C@@H](CCCNC(=N)N)C(=O)N[C@@H](CCCNC(=N)N)C(=O)N[C@@H](CCC(N)=O)C(=O)N1)C(C)C)C(=O)N[C@@H](CC(C)C)C(N)=O)C(N)=O", "assay": "Nile red fluorescence blue shift", "test system": "PBS", "conditions": "total PA concentration, with: Nile red 100 nM", "measurement": "critical aggregation concentration", "value": "~10 µM"}
{"Structure (SMILES)": "CCC(c1nnnn1Cc1cccs1)N1CCC(c2nc3cccc(F)c3s2)CC1 (stereo not drawn)", "assay": "light scattering", "test system": "DNase I buffer", "conditions": "5% DMSO", "measurement": "critical aggregation concentration", "value": "19.6 µM"}
{"Structure (SMILES)": "Cc1cn(CC(=O)N[C@@H](Cc2ccccc2)C(=O)N[C@@H](Cc2ccccc2)C(=O)N[C@@H](Cc2ccc(O)cc2)C(=O)O)c(=O)[nH]c1=O", "assay": "oscillatory rheology", "test system": "hydrogel in water", "conditions": "2.0 wt%, pH 5.0 or 7.4, with: alkaline phosphatase at pH 7.4", "measurement": "critical strain", "value": "8%"}
{"Structure (SMILES)": "CC[C@H](C)[C@H](NC(=O)[C@H](CCN)NC(=O)CCCCCCCCCCCNC(=O)CCCCCO)C(=O)N[C@@H](CCN)C(=O)N[C@H](Cc1ccccc1)C(=O)N[C@@H](CC(C)C)C(=O)N[C@@H](CCN)C(=O)N[C@@H](C(=O)N[C@@H](CC(C)C)C(=O)N[C@@H](CO)C(N)=O)C(C)C", "assay": "light transmittance", "test system": "PBS", "conditions": "pH 7.4", "measurement": "critical micelle concentration", "value": "976 µM"}
{"note": "For quick reference, copied from above:"}
{"Structure (SMILES)": "CCCCCCCCCCCC(=O)NCCCC[C@H](NC(=O)[C@H](C)NC(=O)[C@H](C)NC(=O)[C@H](C)NC(=O)[C@H](C)NC(=O)[C@H](C)NC(=O)[C@H](C)NC(=O)[C@H](CCCCN)NC(=O)[C@H](CCCCN)NC(=O)[C@H](CCCCNC(=O)CC[C@H](NC(=O)[C@@H](NC(=O)[C@@H]1CSSC[C@H](NC(=O)[C@H](CC(=O)O)NC(=O)[C@@H](N)Cc2c[nH]c3ccccc23)C(=O)N[C@@H](CC(C)C)C(=O)N[C@@H](CC(=O)O)C(=O)N[C@@H](CC(N)=O)C(=O)N[C@@H](CCCNC(=N)N)C(=O)N[C@@H]([C@@H](C)CC)C(=O)NCC(=O)N[C@@H](CCCNC(=N)N)C(=O)N[C@@H](CCCNC(=N)N)C(=O)N[C@@H](CCC(N)=O)C(=O)N1)C(C)C)C(=O)N[C@@H](CC(C)C)C(N)=O)NC(=O)CC[C@H](NC(=O)[C@@H](NC(=O)[C@@H]1CSSC[C@H](NC(=O)[C@H](CC(=O)O)NC(=O)[C@@H](N)Cc2c[nH]c3ccccc23)C(=O)N[C@@H](CC(C)C)C(=O)N[C@@H](CC(=O)O)C(=O)N[C@@H](CC(N)=O)C(=O)N[C@@H](CCCNC(=N)N)C(=O)N[C@@H]([C@@H](C)CC)C(=O)NCC(=O)N[C@@H](CCCNC(=N)N)C(=O)N[C@@H](CCCNC(=N)N)C(=O)N[C@@H](CCC(N)=O)C(=O)N1)C(C)C)C(=O)N[C@@H](CC(C)C)C(N)=O)C(N)=O", "assay": "Nile red fluorescence blue shift", "test system": "PBS", "conditions": "total PA concentration, with: Nile red 100 nM", "measurement": "critical aggregation concentration", "value": "~10 µM"}
